Measured values from different studies.
Lines come from different studies, so protocols differ. ± marks the error that the study gave.
HCRTR1: Orexin/Hypocretin receptor type 1 (HCRTR1, Homo sapiens, UniProt O43613)
Chain of UniProt O43613 (whole entry, looked up): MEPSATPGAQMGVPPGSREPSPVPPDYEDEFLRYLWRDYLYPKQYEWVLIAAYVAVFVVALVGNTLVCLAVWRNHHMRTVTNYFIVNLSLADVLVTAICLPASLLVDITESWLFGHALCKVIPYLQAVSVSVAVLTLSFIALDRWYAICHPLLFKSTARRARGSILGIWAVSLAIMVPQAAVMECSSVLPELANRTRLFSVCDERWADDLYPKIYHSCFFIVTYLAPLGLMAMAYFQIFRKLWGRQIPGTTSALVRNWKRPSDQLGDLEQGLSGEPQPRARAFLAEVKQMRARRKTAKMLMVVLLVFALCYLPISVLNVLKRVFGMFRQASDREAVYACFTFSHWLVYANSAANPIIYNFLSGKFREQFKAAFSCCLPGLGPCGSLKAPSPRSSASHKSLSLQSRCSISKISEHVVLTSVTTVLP
LRP1 CR8 domain: LRP1, CR8 domain (Homo sapiens, UniProt Q07954)
Chain of UniProt Q07954 (whole entry, looked up): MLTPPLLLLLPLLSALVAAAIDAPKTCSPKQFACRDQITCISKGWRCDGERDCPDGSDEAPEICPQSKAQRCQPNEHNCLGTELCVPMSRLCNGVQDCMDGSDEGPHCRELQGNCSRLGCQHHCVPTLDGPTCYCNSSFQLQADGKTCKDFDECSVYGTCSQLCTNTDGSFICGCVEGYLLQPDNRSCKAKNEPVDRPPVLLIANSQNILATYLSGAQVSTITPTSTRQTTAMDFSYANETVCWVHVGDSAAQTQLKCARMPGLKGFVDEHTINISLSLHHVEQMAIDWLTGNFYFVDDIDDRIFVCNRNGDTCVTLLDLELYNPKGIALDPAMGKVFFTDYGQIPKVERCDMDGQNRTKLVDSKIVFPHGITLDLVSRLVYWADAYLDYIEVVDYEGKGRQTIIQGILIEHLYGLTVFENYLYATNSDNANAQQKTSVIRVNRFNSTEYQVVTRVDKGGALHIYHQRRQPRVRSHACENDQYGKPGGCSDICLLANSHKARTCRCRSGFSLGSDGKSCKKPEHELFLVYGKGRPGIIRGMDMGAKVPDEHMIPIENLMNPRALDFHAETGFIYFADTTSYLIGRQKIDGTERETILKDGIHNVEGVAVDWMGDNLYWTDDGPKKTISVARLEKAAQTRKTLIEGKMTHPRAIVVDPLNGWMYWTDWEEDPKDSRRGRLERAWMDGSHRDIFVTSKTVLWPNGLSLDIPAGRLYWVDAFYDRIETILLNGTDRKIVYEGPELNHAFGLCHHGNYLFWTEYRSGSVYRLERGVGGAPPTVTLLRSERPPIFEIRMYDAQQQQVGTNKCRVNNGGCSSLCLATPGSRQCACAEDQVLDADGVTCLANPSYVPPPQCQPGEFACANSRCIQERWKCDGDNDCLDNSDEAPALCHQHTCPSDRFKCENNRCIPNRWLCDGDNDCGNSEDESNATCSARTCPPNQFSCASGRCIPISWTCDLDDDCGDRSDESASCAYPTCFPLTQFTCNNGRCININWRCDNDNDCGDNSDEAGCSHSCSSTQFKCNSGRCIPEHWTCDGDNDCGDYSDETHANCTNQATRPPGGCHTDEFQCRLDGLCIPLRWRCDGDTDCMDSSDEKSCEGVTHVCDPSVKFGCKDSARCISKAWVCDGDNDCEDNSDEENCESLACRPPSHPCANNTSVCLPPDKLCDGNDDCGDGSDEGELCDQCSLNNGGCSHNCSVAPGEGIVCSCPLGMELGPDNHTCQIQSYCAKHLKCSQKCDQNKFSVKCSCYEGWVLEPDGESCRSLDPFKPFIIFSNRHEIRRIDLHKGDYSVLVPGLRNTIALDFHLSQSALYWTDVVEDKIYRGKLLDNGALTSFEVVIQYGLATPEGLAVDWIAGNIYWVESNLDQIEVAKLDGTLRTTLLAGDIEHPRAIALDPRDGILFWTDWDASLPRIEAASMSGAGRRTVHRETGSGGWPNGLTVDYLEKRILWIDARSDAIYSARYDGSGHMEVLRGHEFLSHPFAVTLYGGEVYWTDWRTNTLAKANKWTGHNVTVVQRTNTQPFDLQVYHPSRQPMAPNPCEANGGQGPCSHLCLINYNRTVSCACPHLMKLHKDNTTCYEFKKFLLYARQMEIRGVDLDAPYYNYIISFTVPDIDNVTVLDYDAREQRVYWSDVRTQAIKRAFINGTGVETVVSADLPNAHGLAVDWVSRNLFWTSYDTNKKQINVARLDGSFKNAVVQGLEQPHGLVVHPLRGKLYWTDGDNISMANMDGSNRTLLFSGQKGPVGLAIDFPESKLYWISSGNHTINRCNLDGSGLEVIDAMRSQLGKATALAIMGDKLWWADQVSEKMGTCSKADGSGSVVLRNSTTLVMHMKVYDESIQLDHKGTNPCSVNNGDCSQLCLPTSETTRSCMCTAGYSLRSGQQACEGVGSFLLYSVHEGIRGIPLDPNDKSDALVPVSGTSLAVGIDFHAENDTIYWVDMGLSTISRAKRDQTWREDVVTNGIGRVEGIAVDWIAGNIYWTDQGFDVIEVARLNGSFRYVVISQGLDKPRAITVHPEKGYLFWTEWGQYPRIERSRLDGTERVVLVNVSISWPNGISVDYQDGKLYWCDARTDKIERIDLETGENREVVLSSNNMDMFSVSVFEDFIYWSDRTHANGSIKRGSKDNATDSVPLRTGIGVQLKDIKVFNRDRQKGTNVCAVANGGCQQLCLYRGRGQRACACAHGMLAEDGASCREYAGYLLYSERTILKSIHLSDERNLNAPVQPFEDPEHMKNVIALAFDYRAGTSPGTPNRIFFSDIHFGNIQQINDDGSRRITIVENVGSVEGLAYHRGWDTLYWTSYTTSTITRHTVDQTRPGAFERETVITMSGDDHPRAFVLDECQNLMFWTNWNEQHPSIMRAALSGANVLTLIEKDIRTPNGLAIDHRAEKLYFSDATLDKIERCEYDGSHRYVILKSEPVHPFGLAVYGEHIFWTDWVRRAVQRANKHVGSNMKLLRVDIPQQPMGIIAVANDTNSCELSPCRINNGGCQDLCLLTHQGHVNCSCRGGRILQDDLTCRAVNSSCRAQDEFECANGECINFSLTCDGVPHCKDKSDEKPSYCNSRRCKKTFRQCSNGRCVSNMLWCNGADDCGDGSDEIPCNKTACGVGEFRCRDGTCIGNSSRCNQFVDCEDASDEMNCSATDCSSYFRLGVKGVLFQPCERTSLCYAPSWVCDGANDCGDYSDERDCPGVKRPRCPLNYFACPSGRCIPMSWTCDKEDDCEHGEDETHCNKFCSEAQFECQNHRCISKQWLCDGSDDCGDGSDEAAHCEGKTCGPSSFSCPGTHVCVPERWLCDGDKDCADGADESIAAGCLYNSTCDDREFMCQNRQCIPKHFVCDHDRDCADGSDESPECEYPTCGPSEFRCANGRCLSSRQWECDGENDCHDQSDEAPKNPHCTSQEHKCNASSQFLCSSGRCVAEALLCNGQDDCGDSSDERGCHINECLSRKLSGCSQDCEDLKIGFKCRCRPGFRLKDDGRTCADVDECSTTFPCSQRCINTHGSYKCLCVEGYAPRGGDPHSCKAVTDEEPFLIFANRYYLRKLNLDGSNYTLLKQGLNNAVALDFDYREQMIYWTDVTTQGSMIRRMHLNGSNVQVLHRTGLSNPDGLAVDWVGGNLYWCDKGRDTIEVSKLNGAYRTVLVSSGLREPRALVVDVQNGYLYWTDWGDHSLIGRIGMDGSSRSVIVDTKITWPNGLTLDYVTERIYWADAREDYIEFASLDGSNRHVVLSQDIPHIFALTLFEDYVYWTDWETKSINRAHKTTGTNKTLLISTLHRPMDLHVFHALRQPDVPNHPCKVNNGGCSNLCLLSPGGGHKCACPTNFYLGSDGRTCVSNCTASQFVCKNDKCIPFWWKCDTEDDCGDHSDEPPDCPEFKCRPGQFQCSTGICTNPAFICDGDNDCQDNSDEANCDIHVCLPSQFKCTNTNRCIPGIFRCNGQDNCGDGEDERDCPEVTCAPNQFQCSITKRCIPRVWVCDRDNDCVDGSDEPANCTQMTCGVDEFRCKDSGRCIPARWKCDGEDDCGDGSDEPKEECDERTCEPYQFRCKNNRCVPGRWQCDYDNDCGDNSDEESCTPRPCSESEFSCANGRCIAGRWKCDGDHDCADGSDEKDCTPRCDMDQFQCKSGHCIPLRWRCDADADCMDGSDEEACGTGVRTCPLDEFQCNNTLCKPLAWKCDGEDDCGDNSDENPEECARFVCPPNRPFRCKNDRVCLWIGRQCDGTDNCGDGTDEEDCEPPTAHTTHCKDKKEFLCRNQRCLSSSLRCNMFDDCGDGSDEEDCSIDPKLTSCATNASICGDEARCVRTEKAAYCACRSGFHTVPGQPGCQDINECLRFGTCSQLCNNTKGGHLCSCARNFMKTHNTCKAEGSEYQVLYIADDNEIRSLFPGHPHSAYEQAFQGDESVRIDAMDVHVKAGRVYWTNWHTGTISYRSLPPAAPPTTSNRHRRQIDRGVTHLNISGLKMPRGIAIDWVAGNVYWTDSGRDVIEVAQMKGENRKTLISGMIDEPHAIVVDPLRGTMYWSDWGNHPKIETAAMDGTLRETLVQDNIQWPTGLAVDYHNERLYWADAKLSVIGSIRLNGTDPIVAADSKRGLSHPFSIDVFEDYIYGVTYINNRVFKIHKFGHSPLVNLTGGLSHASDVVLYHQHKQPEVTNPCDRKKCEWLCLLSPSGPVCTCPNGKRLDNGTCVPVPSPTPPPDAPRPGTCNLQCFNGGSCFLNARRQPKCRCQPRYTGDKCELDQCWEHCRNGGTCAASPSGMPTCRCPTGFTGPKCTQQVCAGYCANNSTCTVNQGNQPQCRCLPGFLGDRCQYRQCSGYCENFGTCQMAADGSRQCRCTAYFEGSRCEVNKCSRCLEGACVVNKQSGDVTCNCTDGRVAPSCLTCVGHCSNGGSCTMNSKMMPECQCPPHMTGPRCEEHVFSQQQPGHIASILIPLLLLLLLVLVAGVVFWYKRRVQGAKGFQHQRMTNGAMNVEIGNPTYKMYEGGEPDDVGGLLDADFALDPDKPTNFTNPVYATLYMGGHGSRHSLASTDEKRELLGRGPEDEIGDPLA
Chain of UniProt P62937 (whole entry, unmodified, looked up): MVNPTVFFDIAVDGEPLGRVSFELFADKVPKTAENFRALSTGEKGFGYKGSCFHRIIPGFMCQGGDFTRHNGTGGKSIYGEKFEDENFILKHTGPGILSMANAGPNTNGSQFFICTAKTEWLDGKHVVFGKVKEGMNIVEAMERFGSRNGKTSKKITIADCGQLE

`NC(=O)c1ccc[n+]([C@@H]2O[C@H](COP(=O)(O)OP(=O)(O)OC[C@H]3O[C@@H](n4cnc5c(N)ncnc54)[C@H](O)[C@@H]3O)[C@@H](O)[C@H]2O)c1` gave a Kd of 48.7 ± 0.8 µM (phenylacetaldehyde dehydrogenase (Pseudomonas putida, UniProt Z9OS69Y4H5); binding, NADH displacement fluorescence; pH 7.0, 25 °C, added: NADH 50 µM).
The Kb of `COc1cc2c(cc1OC)C(Cc1ccc(O)c(N)c1)N(CC(=O)NCc1ccccc1)CC2` (stereo not drawn) is reported as greater than 10 µM (HCRTR1; calcium signal, antagonist, fluorescence).
`COc1ccc(CC2c3cc(OC)c(OC)cc3CCN2CC(=O)Nc2ccc(-c3ccccc3)cc2)cc1OC` (stereo not drawn) has a Kd of 2.24 ± 0.11 µM (HCRTR1).
`COC(=O)[C@@H](N)Cc1c[nH]cn1` gave a Kd of 330 ± 10 µM (LRP1, CR5 domain (Homo sapiens, UniProt Q07954); tryptophan fluorescence titration; pH 5.5, CR5 domain, low ionic strength).
`CCCCOc1ccc(CC2c3cc(OC)c(OC)cc3CCN2CC(=O)NCc2ccccc2)cc1OC` (stereo not drawn) has a Kb of 0.048 µM (HCRTR1; calcium signal, antagonist, fluorescence).
`N=C(N)c1ccc(NCCCCCCCNc2ccc(C(=N)N)cc2)cc1` gave a Kd of 3.9 ± 0.3 µM (CTG·CAG repeat hairpin DNA; fluorescence titration; 11 CTG·CAG repeats).
With `COc1ccc(CC2c3cc(OC)c(OC)cc3CCN2CC(=O)NC2CC(C)Nc3ccccc32)cc1OC` (stereo not drawn) the Kd was 7.17 ± 0.39 µM (HCRTR1).
For `Cc1noc(NS(=O)(=O)c2ccc(NC(=O)c3cc(-c4cccc(Br)c4)nc4ccccc34)cc2)c1C`, the Kd was 1.13 µM (Peptidyl-prolyl cis-trans isomerase A (PPIA, Homo sapiens, UniProt P62937); binding, SPR; pH 7.4).
`CC[C@H](C)[C@H](NC(=O)[C@@H](NC(=O)[C@@H](NC(=O)[C@H](CO)NC(=O)[C@H](CO)NC(=O)[C@@H](NC(=O)[C@H](CC(C)C)NC(=O)[C@H](CC(N)=O)NC(=O)[C@H](C)NC(=O)[C@H](CCC(=O)O)NC(=O)[C@H](CCCNC(=N)N)NC(=O)[C@H](CC(=O)O)NC(=O)[C@@H](N)CC(C)C)[C@@H](C)O)C(C)C)[C@@H](C)O)C(=O)N[C@@H](CC(C)C)C(=O)N1CCC[C@H]1C(=O)N[C@@H](CC(C)C)C(=O)N1CCC[C@H]1C(=O)N[C@@H](CC(C)C)C(=O)N[C@@H](CCC(N)=O)C(=O)N[C@@H](CC(N)=O)C(=O)N[C@@H](C)C(=O)N[C@H](C(=O)N[C@H](C(=O)N[C@@H](CCC(=O)O)C(=O)N[C@@H](C)C(=O)NCC(=O)N[C@H](C(=O)N[C@@H](CCCNC(=N)N)C(=O)O)[C@@H](C)O)C(C)C)[C@@H](C)O` has a Kd of greater than 0.1 µM (Toll-like receptor 4/MD-2 (TLR4/LY96, Homo sapiens, UniProt O00206+Q9Y6Y9); binding, ELISA; added: His-tagged TLR4/LY96).
For `COC(=O)[C@H](CCCCN)NC(C)=O`, the Kd was 1800 ± 190 µM (LRP1 CR8 domain; binding, tryptophan fluorescence titration; isolated CR8 domain; pH 7.4, 298 K, ionic strength 0.02).
With `NC[C@@H]1O[C@H](O[C@H]2[C@@H](O)[C@H](O[C@@H]3[C@@H](O)[C@H](N)C[C@H](N)[C@H]3O[C@H]3O[C@H](CN)[C@@H](O)[C@H](O)[C@H]3N)O[C@@H]2CO)[C@H](N)[C@@H](O)[C@@H]1O` the Kd was 4.2 ± 0.3 µM (HIV-1 SL3 RNA stem-loop; binding, ESI-FTMS titration; pH 7.5).
For `C[C@H](NS(=O)(=O)c1cccc2c(N(C)C)cccc12)C(=O)N[C@@H](C)C(=O)N1CCC[C@H]1C(=O)N[C@@H](Cc1ccccc1)C(=O)O`, the Kd was 107 ± 30 µM (Peptidyl-prolyl cis-trans isomerase A (PPIA, Homo sapiens, UniProt P62937, G74A/G75A); binding, FRET titration; 4 °C, added: dansylated peptide).
`COc1ccc(CC2c3cc(OS(C)(=O)=O)c(OC)cc3CCN2CC(=O)NCc2ccccc2)cc1OC` (stereo not drawn) has a Kd of 0.0073 ± 0.0027 µM (HCRTR1).
`COC(=O)[C@@H](N)CCCCN` has a Kd of 180 ± 10 µM (LRP1 CR8 domain; binding, tryptophan fluorescence titration; isolated CR8 domain; pH 7.4, 298 K, ionic strength 0.02).
The Kd of `CC[C@H](C)[C@H](NC(=O)[C@@H](N)CC(=O)O)C(=O)N1CCC[C@H]1C(=O)N1CCC[C@H]1C(=O)N[C@@H](C)C(=O)N[C@@H](CCCNC(=N)N)C(=O)N1CCC[C@H]1C(=O)N1CCC[C@H]1C(=O)N[C@@H](CCCCN)C(=O)N1CCC[C@H]1C(=O)N[C@@H](Cc1c[nH]cn1)C(=O)N1CCC[C@H]1C(=O)O` is reported as 591 µM (Growth factor receptor-bound protein 2 (GRB2, Homo sapiens, UniProt P62993); binding, ITC; pH 8).

Repeated from above:
With `COc1ccc(CC2c3cc(OC)c(OC)cc3CCN2CC(=O)NC2CC(C)Nc3ccccc32)cc1OC` (stereo not drawn) the Kd was 7.17 ± 0.39 µM (HCRTR1).
